Measured values of several laboratories.
Lines come from different studies, so protocols differ. ± gives the spread as reported.

The IC50 ratio of `CC[C@H](C)[C@H](NC(C)=O)C(=O)N[C@H]1CSSC[C@@H](C(=O)N(C)[C@H](C(N)=O)[C@@H](C)CC)NC(=O)[C@H](CCCNC(=N)N)NC(=O)[C@H](Cc2c[nH]cn2)NC(=O)[C@H](C)NC(=O)CN(C)C(=O)[C@H](Cc2c[nH]c3ccccc23)NC(=O)[C@H](CC(=O)O)NC(=O)[C@H](CCC(N)=O)NC(=O)[C@H](Cc2cn(C)c3ccccc23)NC(=O)[C@H](C(C)C)NC1=O` is reported as less than 2 (classical complement activation, ELISA C3b deposition; normal human plasma; hydrogen peroxide treated; relative to: untreated peptide).
With `NS(=O)(=O)NCC(O)c1ccccc1F` (stereo not shown) the ED50 was greater than 250 mg/kg (protection from scPTZ seizures; mouse; with: pentylenetetrazol 85 mg/kg s.c.).
`CCCC[C@H](NC(=O)[C@@H](NC(=O)[C@H](CC(=O)O)NC(=O)[C@H](CCC(N)=O)NC(=O)[C@H](CC(C)C)NC(=O)[C@H](CC(C)C)NC(=O)[C@H](CCCN)NC(=O)[C@H](CCCNC(=N)N)NC(=O)[C@H](C)NC(=O)[C@H](CO)NC(=O)[C@H](CC(C)C)NC(=O)[C@H](CCC(N)=O)NC(=O)[C@H](CC)NC(=O)[C@H](CC(C)C)NC(=O)[C@@H](NC(=O)[C@H](CCCN)NC(=O)[C@H](CCCNC(=N)N)NC(=O)[C@H](Cc1ccc(O)cc1)NC(=O)[C@H](CO)NC(=O)[C@H](CCC(N)=O)NC(=O)[C@@H](NC(=O)[C@H](Cc1ccccc1)NC(=O)[C@@H](NC(=O)[C@H](C)NC(=O)[C@H](CC(=O)O)NC(=O)[C@@H](C)NC(=O)[C@H](Cc1ccc(O)cc1)NC)[C@@H](C)CC)[C@@H](C)O)C(C)C)[C@@H](C)CC)C(=O)N[C@@H](CC(=O)O)C(=O)NCCCCNC(=N)N` has a relative potency of 134 (GH release; male rat, serum; subcutaneous, dose not given, 30 min; relative to: GHRH(1-29)NH2).
`C=C(c1ncc(C(=O)O)cn1)c1cc2c(cc1C)C(C)(C)CCC2(C)C`: “log2 fold change” -0.88 (RNA sequencing, measured: Ifit3 mRNA; rat, brain; dose not given, 24 h, single dose; relative to: vehicle).
`N#Cc1cnc2cc(OCC3CCNCC3)c(F)cc2c1Nc1cc(F)c(OCc2cccc(Cl)n2)cc1Cl` — result for MOB1 phosphorylation: “decreased” (C57BL/6J mice, partial hepatectomy, resected liver; dose not given, 70% partial hepatectomy, pretreatment).
`COc1ccc2c(c1)c(CC(=O)OCC(=O)c1ccccc1)c(C)n2C(=O)c1ccc(Cl)cc1`: “latency of nociceptive response” 14.8 ± 1.41 s (hot plate test; BALB/c mice; 50 mg/kg, 120 min).
The oligomer reduction of `CCC1CC2C(C)=CC3C(=O)CCCC3C=CC(C)=CC2C(=O)O1` (stereo not shown) is reported as 7.6% (A11 dot blot, measured: amyloid-beta oligomers; 5XFAD mouse, cortex; oral gavage, 30 mg/kg/day, 5 days; relative to: vehicle).
With `CCCC[C@H](NC(=O)[C@@H](NC(=O)[C@H](CC(=O)O)NC(=O)[C@H](CCC(N)=O)NC(=O)[C@H](CC(C)C)NC(=O)[C@H](CC(C)C)NC(=O)[C@H](CCCN)NC(=O)[C@H](CCCNC(=N)N)NC(=O)[C@H](C)NC(=O)[C@H](CO)NC(=O)[C@H](CC(C)C)NC(=O)[C@H](CCC(N)=O)NC(=O)[C@H](CC)NC(=O)[C@H](CC(C)C)NC(=O)[C@@H](NC(=O)[C@H](CCCN)NC(=O)[C@H](CCCNC(=N)N)NC(=O)[C@H](Cc1ccc(O)cc1)NC(=O)[C@H](CO)NC(=O)[C@H](CCC(N)=O)NC(=O)[C@@H](NC(=O)[C@H](Cc1ccccc1)NC(=O)[C@@H](NC(=O)[C@H](C)NC(=O)[C@H](CC(=O)O)NC(=O)[C@@H](C)NC(=O)[C@H](Cc1ccc(O)cc1)NC)[C@@H](C)CC)[C@@H](C)O)C(C)C)[C@@H](C)CC)C(=O)N[C@@H](CC(=O)O)C(=O)N[C@@H](CCCNC(=N)N)C(=O)NCC` the relative potency was 0.96 (GH release; rat, male, serum; subcutaneous, 3 µg/kg, 30 min; relative to: reference GHRH agonist JI-38).
With `N[C@@H](Cc1ccccc1)C(=O)N1CCC[C@H]1C(=O)NCC(=O)NCC(=O)O` the activation energy was 21.3 ± 1.67 kcal/mol (diketopiperazine formation, Arrhenius plot, ESI-MS; 1-propanol; 70, 80, 90 °C, 0.5% acetic acid).
With `CC(=O)[O-].O.O.O.O.[Co+2].[O-]c1ccc(Br)cc1C=NCCN1CCOCC1` the inhibition was 58.5% (nitric oxide scavenging; 240 µM).

Repeated from above:
The IC50 ratio of `CC[C@H](C)[C@H](NC(C)=O)C(=O)N[C@H]1CSSC[C@@H](C(=O)N(C)[C@H](C(N)=O)[C@@H](C)CC)NC(=O)[C@H](CCCNC(=N)N)NC(=O)[C@H](Cc2c[nH]cn2)NC(=O)[C@H](C)NC(=O)CN(C)C(=O)[C@H](Cc2c[nH]c3ccccc23)NC(=O)[C@H](CC(=O)O)NC(=O)[C@H](CCC(N)=O)NC(=O)[C@H](Cc2cn(C)c3ccccc23)NC(=O)[C@H](C(C)C)NC1=O` is reported as less than 2 (classical complement activation, ELISA C3b deposition; normal human plasma; hydrogen peroxide treated; relative to: untreated peptide).
